Measurements of several laboratories.
± gives the spread as reported.

Structure (SMILES) = CCOC(=O)c1cnn2c1NN=C([N+](=O)[O-])C2(O)CC (stereo not drawn); organism = Enterovirus B; assay = viral replication, inhibitor; system = Vero, B3; setting = 48 h; IC50 = > 353 µM
Structure (SMILES) = O=P(O)(OCCCc1ccccc1)Oc1c2c(c(OP(=O)(O)OCCCc3ccccc3)c3c1C1CC3c3cc4c(cc31)C1CC4c3ccccc31)C1CC2c2cc3c(cc21)C1CC3c2ccccc21; organism = measles virus; assay = viral infection, flow cytometry; system = A549, vaccine strain GFP; setting = 2 days, virus pre-incubated 30 min 37 °C; IC50 = 1.6 µM
Structure (SMILES) = COc1ccc(-c2coc3cc(O)cc(O)c3c2=O)cc1; organism = Human betaherpesvirus 5; assay = viral replication, absorbance; system = human Fibroblast; setting = 72 h; IC50 = 28 µM
Structure (SMILES) = CC(C)=CCC/C(C)=C/CC/C(C)=C/CNCCOC1C2CC3CC(C2)CC1C3 (stereo not drawn); organism = Bacillus subtilis; assay = microbial growth; IC50 = 0.8 µg/mL
Structure (SMILES) = CCC1(O)C([N+](=O)[O-])=NNc2nc(C)nn21 (stereo not drawn); organism = Enterovirus B; assay = viral replication, inhibitor; system = Vero, B3; setting = 48 h; IC50 = > 220 µM
Structure (SMILES) = CCOc1ccccc1CN(OC)C(=O)CSc1c[nH]c2cccc(Br)c12; organism = human coronavirus NL63; assay = viral replication, MTS; system = LLC-MK2; setting = 120 h; IC50 = > 50 µM
Structure (SMILES) = C/C=C1\NC(=O)[C@H](Cc2ccccc2)NC(=O)[C@H](C(C)C)NC(=O)[C@H](Cc2ccccc2)NC(=O)[C@H](CCC(N)=O)NC(=O)[C@H](Cc2c[nH]c3ccccc23)NC(=O)[C@H]2CSC[C@@H](C(=O)N[C@@H](CO)C(=O)O)NC(=O)[C@H](CSC[C@H]3NC(=O)[C@H]([C@@H](C)CC)NC(=O)[C@H](NC(=O)[C@H](Cc4c[nH]cn4)NC(=O)[C@@H](NC(=O)[C@@H](NC(=O)CNC(=O)[C@H](CO)NC(=O)CNC(=O)CNC(=O)[C@@H](N)CCCCN)C(C)C)[C@@H](C)CC)[C@H](C)SC[C@H](NC(=O)[C@H](CCC(=O)O)NC(=O)[C@H](Cc4c[nH]cn4)NC3=O)C(=O)N[C@@H](CC(N)=O)C(=O)N[C@@H](CCSC)C(=O)N[C@@H](CC(N)=O)C(=O)N2)NC1=O; organism = Bacillus subtilis; assay = bacterial growth; system = ATCC 6633; IC50 = 0.98 ± 0.11 µM
Structure (SMILES) = CN1CCN(C(=O)N[C@@H](Cc2ccccc2)C(=O)N[C@H](/C=C/S(=O)(=O)c2ccccc2)CCc2ccccc2)CC1; organism = Xenotropic murine leukemia virus; assay = viral entry; system = HEK-293T; setting = pseudovirus; IC50 = > 0.1 µM
Structure (SMILES) = C=CCCCOP(=O)(O)Oc1c2c(c(OP(=O)(O)OCCCC=C)c3c1C1CC3c3cc4c(cc31)C1CC4c3ccccc31)C1CC2c2cc3c(cc21)C1CC3c2ccccc21; organism = measles virus; assay = viral infection, flow cytometry; system = A549, vaccine strain GFP; setting = 2 days, virus pre-incubated 30 min 37 °C; IC50 = 13.4 µM
Structure (SMILES) = CC1CC2OCOC2C(OC2CCC3(C=O)C4CCC5(C)C(C6=CC(=O)OC6)CCC5(O)C4CCC3(O)C2)O1 (stereo not drawn); organism = transmissible gastroenteritis virus; assay = viral replication, immunofluorescence; system = ST cells; setting = 6 h post-infection, pretreated 1 h; IC50 = 0.164 ± 0.047 µM
Structure (SMILES) = C#CCC(C)OP(=O)(O)Oc1c2c(c(OP(=O)(O)OC(C)CC#C)c3c1C1CC3c3cc4c(cc31)C1CC4c3ccccc31)C1CC2c2cc3c(cc21)C1CC3c2ccccc21 (stereo not drawn); organism = measles virus; assay = viral infection, flow cytometry; system = A549, vaccine strain GFP; setting = 2 days, virus pre-incubated 30 min 37 °C; IC50 = 28 µM
Structure (SMILES) = CCC1(O)C([N+](=O)[O-])=NNc2nc(SC)nn21 (stereo not drawn); organism = Enterovirus B; assay = viral replication, inhibitor; system = Vero, B3; setting = 48 h; IC50 = > 194 µM

For quick reference, copied from above:
Structure (SMILES) = O=P(O)(OCCCc1ccccc1)Oc1c2c(c(OP(=O)(O)OCCCc3ccccc3)c3c1C1CC3c3cc4c(cc31)C1CC4c3ccccc31)C1CC2c2cc3c(cc21)C1CC3c2ccccc21; organism = measles virus; assay = viral infection, flow cytometry; system = A549, vaccine strain GFP; setting = 2 days, virus pre-incubated 30 min 37 °C; IC50 = 1.6 µM
